Published values of several laboratories.
Protocols differ between the studies behind these lines.
Target: SRSF protein kinase 1 (SRPK1, Homo sapiens, UniProt Q96SB4)

Compound | assay | setting | scale | quantity | value
N#Cc1ccc(NC(=O)Nc2ccccc2)cc1 | enzyme activity, inhibitor, FRET | 10 µM | – | inhibition | 23.1%
COc1c(Cl)cccc1Nc1c(-c2ccncc2C#C[C@@]2(C)CCCN2C(=O)/C=C/CN(C)C)[nH]c2c1C(=O)NCC2 | binding, competition with immobilised ligand | 3 µM | – | remaining binding | 87%
CN1CC[C@@H](COc2cnc(C#N)cc2-c2ccn3nc(NC(=O)C4CC4)cc3c2)C1 | enzyme activity, inhibitor | 1 µM | – | inhibition | 21%
CCN1CCN(Cc2ccc(C(=O)Nc3ccc(C)c(NCc4cnc5[nH]ccc5c4OC)c3)cc2C(F)(F)F)CC1 | binding, competition with immobilised ligand | 1 µM | – | remaining binding | 93%
N#Cc1ccc(NC(=O)Nc2ccccc2O)cc1 | enzyme activity, inhibitor, FRET | 10 µM | – | inhibition | 22.2%
Cc1cccc(-c2ccc3nc(NC(=O)C4CCCCC4)nn3c2)c1 | enzyme activity, Dundee kinase panel | 10 µM | – | remaining activity | 75%
Cc1cnc2nc1Nc1cccc(c1)COC/C=C/COCc1cc(ccc1OCCN1CCOCC1)N2 | binding, competition with immobilised ligand | 0.1 µM | – | remaining binding | 91%
CN1CCN(Cc2ccc(-c3ccc(CO[C@H]4CCC[C@@H]4NC(=O)c4cc(-c5cnn(C)c5)cnc4N)cc3)cc2)CC1 | enzyme activity, inhibitor | 0.1 µM | – | inhibition | 1%
C=CC(=O)Nc1cccc(-c2cnc3[nH]cc(C(=O)NC(C)(C)C)c3n2)c1 | enzyme activity, inhibitor | 0.1 µM | – | inhibition | -6%
CN(C(=O)N(C)c1ccc(C#N)cc1)c1ccccc1 | kinase activity, inhibitor, Z'-LYTE | 10 µM, added: ATP at apparent Km | – | inhibition | no inhibition
Cc1cccc(-c2ccc3nc(NC(=O)C4CCOCC4)nn3c2)c1 | enzyme activity, Dundee kinase panel | 10 µM | – | remaining activity | 53%
Cc1ccc(-c2c(/C=C(\C#N)C(=O)NC(C)C)n(CCCO)c3ncnc(N)c23)cc1 | cell-free assay, competition with immobilised ligand | 1 µM | – | remaining binding | 100%
C=CC(=O)N1CCCC(n2c(=O)c3ncccc3n(Cc3ccc(Oc4ccccc4)cc3)c2=O)C1 (centres unmarked) | cell-free assay, competition with immobilised ligand | 1 µM | – | remaining binding | 85%
COc1cc(Nc2nc(C)cc(-c3cnn4nc(OC)ccc34)n2)cc(C(F)(F)F)c1 | binding, competition with immobilised ligand | 1 µM | – | remaining binding | 96%
CNC1C[S+]2CC[S+]3CC[S+](C1)[Ru-4]321([N]=C=S)[n]2c3ccc(OC)cc3c3c4c(c5cc(F)c[n+]1c5c32)C(=O)NC4=O (centres unmarked) | KinomeScan | 0.1 µM | reference: untreated | remaining binding | 100%
NC(=O)C[C@H]1CCc2sc3ncnc(O[C@H]4CC[C@H](N5CCOCC5)CC4)c3c21 | enzyme activity, inhibitor | 10 µM | – | inhibition | 2%
COc1ccc(NC(=O)Nc2ccc3c(c2)C(=O)N(C(C)CO)CC(C)C(CN(C)Cc2ccc4c(c2)OCO4)O3)cc1 (centres unmarked) | kinase activity, KinaseProfiler | 0.03 µM, species human | reference: control | remaining activity | 100%
Cc1cccc(O[C@H]2CCC[C@@H](C(C)CNCc3ccncc3)C2)c1 (relative stereo) | enzyme activity, inhibitor | 1 µM | – | inhibition | 3%
CNC(=O)C1CCN(c2cc(C)c(F)cc2NC(=O)c2ccc(-c3cc(O)ccc3C)c(C)c2)CC1 | binding, competition with immobilised ligand | 1 µM | – | remaining binding | 100%
COc1c(OCCCN2CCOCC2)ccc2c1N=C(NC(=O)c1cnc(N)nc1)N1CCN=C21 | kinase activity, inhibitor | 1 µM | reference: untreated control | remaining activity | 95%
O=C(O)CCC(=O)c1cccc(NS(=O)(=O)c2c[nH]c3ncccc23)c1 | kinase activity, radiometric | 10 µM | – | remaining activity | 105%
CC(C)=CC1OC(C)(C)C2C=C3C(=O)C(Cl)=CC(O)C3C3C(O)C4OC4C(=O)C132 (centres unmarked) | cell-free assay, competition with immobilised ligand | 10 µM | – | remaining binding | 91%
O=C(Nc1cccc(C(F)(F)F)c1)Nc1ccccc1O | enzyme activity, inhibitor, FRET | 10 µM | – | inhibition | 11.6%

Repeated from above:
Compound | assay | setting | scale | quantity | value
C=CC(=O)N1CCCC(n2c(=O)c3ncccc3n(Cc3ccc(Oc4ccccc4)cc3)c2=O)C1 (centres unmarked) | cell-free assay, competition with immobilised ligand | 1 µM | – | remaining binding | 85%
Cc1cccc(-c2ccc3nc(NC(=O)C4CCCCC4)nn3c2)c1 | enzyme activity, Dundee kinase panel | 10 µM | – | remaining activity | 75%
COc1c(OCCCN2CCOCC2)ccc2c1N=C(NC(=O)c1cnc(N)nc1)N1CCN=C21 | kinase activity, inhibitor | 1 µM | reference: untreated control | remaining activity | 95%
